Results of several laboratories.
Every numbered part comes from another study and shows a few of its results, in no order. Changes are numbered by the printed parent chain.

Study 1
Target: Sal-like protein 4, full length isoform B (SALL4, Homo sapiens, UniProt Q9UJQ4-2, residues 1-616)
Technique: universal PBM
Molecule type: double-stranded DNA, one strand shown
Medium: in vitro
Tested at: not given
Notes: 8-mer, flanks averaged, mean of replicates
Reading: higher = stronger binding
Strand | E-score
ATAGACAC | 0.0624
CGCTTGAG | -0.0484
CCCCCATC | -0.166
ACCTAAAG | -0.0234
GGTGAGTA | -0.013
CATCTGGG | -0.143
AATGGCGG | -0.23
AAGCACGG | -0.298
AGTGCTGA | -0.0949
AGGCGTAC | -0.0458
CTTCGGTA | -0.115
AATCTCGG | -0.119
AATGCAAC | 0.14
GCTAGAAC | -0.138
GATCGATA | 0.231
AGCCATGG | -0.173
ACCAAGCG | -0.272
CATGAACG | -0.0757

Study 2
Target: Ras GTPase-activating protein-binding protein 1, full length (G3BP1, Homo sapiens, UniProt Q13283)
UniProt Q13283, sequence (whole entry, looked up): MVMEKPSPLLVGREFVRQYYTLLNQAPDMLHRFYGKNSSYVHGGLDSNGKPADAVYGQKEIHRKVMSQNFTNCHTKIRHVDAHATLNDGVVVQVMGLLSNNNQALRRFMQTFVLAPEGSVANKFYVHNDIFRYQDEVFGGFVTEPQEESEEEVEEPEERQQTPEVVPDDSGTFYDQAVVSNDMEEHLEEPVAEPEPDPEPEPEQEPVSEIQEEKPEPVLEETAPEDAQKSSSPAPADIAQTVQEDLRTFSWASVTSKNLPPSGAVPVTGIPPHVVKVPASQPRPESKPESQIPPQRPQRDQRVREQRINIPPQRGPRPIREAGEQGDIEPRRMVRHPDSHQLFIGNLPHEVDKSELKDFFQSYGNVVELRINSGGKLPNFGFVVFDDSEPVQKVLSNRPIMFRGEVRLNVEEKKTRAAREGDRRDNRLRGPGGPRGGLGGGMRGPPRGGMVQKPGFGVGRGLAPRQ
Technique: RNA Bind-n-Seq
Molecule type: RNA
Medium: in vitro
Tested at: 200 nM
Notes: whole 134-nt RNA, ends assumed
With: 150 mM LiCl
Reference: input library
Reading: higher = stronger binding
Library: 7-deaza-guanosine replaces G
Constant ends, left off below: GGGAGUUCUACAGUCCGACGAUC … UGGAAUUCUCGGGUGUCAAGG
Strand | log2 enrichment
CACAGACAACACGCCCCCACACAGACACAGAGGGAAGGGGUUGGGAUGGGGACAGGGUGCACAGCAGGGCGGGGUAGGACCCCAGCCCCU | -1.2
ACCAUGCAGGUGGGCAUCUUUGGGAAGUGGGGCAAGGGGGGGAUAGGGAGGGGGGUAACACUUUGGGAACAUGUGGUCCCAGGUCGUUUC | 0.26
AAGUCCUGUGCUACACAUCGUAUGUACCGAAUCGGGGCCCCGGCCCCGGGCCCCGGGAAAGUAUUAUGUUACGCCGUUCGGAUCUGCACU | -1.46
UCCCCAGGGCCUGGCCUACUCAAUCUCUCCCACCUCAUCCUCUGGCAUGGACGCAGUCAGGGAGUCUGCUCCAAGCAGACACUGGUGGUC | -0.0614
AAGUCCUGUGCUACACAUCGUAUGUACCGAAUCGGGAGGGUUUGGGUUUUUUUGGGAAAGUAUUAUGUUACGCCGUUCGGAUCUGCACUU | -0.428
ACCAUGCAGGUGGGCAUCUUUGGGAAGUGGGGCAAGGGGGGGAUAGGGAGGGGGGUAACACUUUAAAAACAGGUGGUCCCAGGUCGUUUC | -0.178
CACAGACAACACGCACCUACACAGACACAGAGGGAAGGGGUUGGGAUGGGGACAGGGUGCACAGCAGGGCGGGGUAGGACCCCAGCCCCU | 0.387
UCCUGUGCUACACAUCGUAUGUACCGAAUCAAAUUUUUUUAAACCCAAAUUUUUUUAAAAAAGUAUUAUGUUACGCCGUUCGGAUCUGCA | -1.78
UCAAGUCCUGUGCUACACAUCGUAUGUACCGAAUCGGUUGGGGUUGGGGUUGGGGAAAGUAUUAUGUUACGCCGUUCGGAUCUGCACUUC | -0.708
CAAGUCCUGUGCUACACAUCGUAUGUACCGAAUCGGGUGGGAGGGAAAAAAAGGGAAAGUAUUAUGUUACGCCGUUCGGAUCUGCACUUC | -0.0193
CUGUGCUACACAUCGUAUGUACCGAAUCGGGGAAAAAAAGGGGUUUGGGGAAAAAAAGGGGAAAGUAUUAUGUUACGCCGUUCGGAUCUG | -0.293

Study 3
Target: RNA binding protein fox-1 homolog 2, RRM domain, GST-SBP tag (RBFOX2, Homo sapiens, UniProt O43251-10, residues 100-194)
Technique: RNA Bind-n-Seq
Molecule type: RNA
Medium: in vitro
Tested at: 365 nM
Notes: natural RNA segment, single round, ends assumed
Reference: no-protein control
Reading: higher = stronger binding
Constant ends, left off below: GGGAGUUCUACAGUCCGACGAUC … UGGAAUUCUCGGGUGCCAA
Residues (chain): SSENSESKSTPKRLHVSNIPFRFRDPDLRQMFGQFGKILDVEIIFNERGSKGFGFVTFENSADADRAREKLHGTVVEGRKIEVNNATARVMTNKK
Strand | RBNS enrichment (R)
GCAGUCUGAUUGCUGUGUUACAAGGACCCAGCUGAGCUGAUGUCAUUCGCACUGCCUCUGUUGCUUCUGGCUGACCAGACCUCAUGGCCCUGCACUAGACACCCGACCCU | 0.311
AAGUGUUCAUUCUGCAUAGGUGUGAGGCUUUAUCUGCACACAGGACAUGAAAACCAGCAGAAAGGCCCUGAGCUGCUGCAUAGCCCCAUCUGAUUUCUGCAGUUCCCGCC | 0.562
UGAACAGAACUGCUAUUUCCUCUAAUGAAGAAUUCUGUUUAGCUGUGGGUGUGCCGGGUGGGGUGUGUGUGAUCAAAGGACAAAGACAGUAUUUUGACAAAAUACGAAGU | 1.17
UCCCUAGCAAAAUGCUAGGCCUGUAGUAGUCAAGGUGCUCAAUAAAUAUUUGUUUGGGUGGUUUGUGAGCCUUGCUGCCAAGUCCUGCCUUUGGGUCGACAUAGUAUGGA | 1.5
CAUCCCAACUCACACGGAAGCACGGGUCUUGUCUCAGUCUCUUCGCUGCAUUUGGAAAGCAGUCUCCUCUCGGGCCAGCGCCGGGCUGAGGUGUCCAGAGGCGGCGGCAG | 0.569
CUUUUCCCAAUCCUUUGCCCUCAAAUCAGUGACCCAAGGGAGGGGGGGAUUUAAAGGGAAGGAGUGGGCAAAACACAUAAAAUGAAUUUAUUAUAUCUAAGCUCUGUAGC | 2.4
UUGAUAAAUUAGCUACUACAACCCCAUGGAACCAAGUCUUUUCAAAUUUCAACAAAUUGUCUUUGAGUCAGAAAAGUUAGAUAAUUCUUCAACUGUUUGAAAUAAUGCUC | 0.643
AUUCCCCUCCACCUCGGGAGGGGACAGGCUCCCACAUCCCAUCCCACCCUCCACACCCCAAAGAGAAAUCCCUUCAAAACAGUUUGGGGCCUGUAGCCAGGGUGGGAGGG | 0.313
UUUUUCUUUACCUCAGUUAACUUAAGUAAUGGACCAAUAAACCUAUCAAAGCUGCUUCAUUUCUUCCGGAUCAUGUGCUCAUUUUUGUCUCUGUUAGGACUGGAAAAGCA | 0.872
ACCACUGUCAUUUCUUCAGCUAUGGAUAUGUGGCUGAUGUUGGGGAGACGGACCUCAGUGUGUUUUAUAUUGUCUGGUGUUAAGAUGAUAAAUUACUUUGUGAUUACAAG | 0.439
GGCUGGCACCAGGGGAGUGAAACUGGCUGAUGACCAGCUGAGCCACUUUGUGCCAACAGAGGAUGGACGACACCUUUCCCUGUACCCACUGCAGAGGAAGAACCCUGGGC | 0.261
GGAGCCAGGUGGGAAAAGUGGGUGUGAUUUUUAGAUUUUGUAUUGUGGACUGAUUUUGCCUCACAUUAAAAACUCAUCCCAUGGCCAGGGCGGGCCACUGUGCUCCUGGA | 2.27

Study 4
Target: Phosphate system positive regulatory protein PHO4, full length, GST-tagged (PHO4, Saccharomyces cerevisiae, UniProt P07270, residues 1-312)
Technique: competition protein-binding microarray
Molecule type: double-stranded DNA, one strand shown
Medium: in vitro
Tested at: 2 µM
Notes: whole 60-bp probe, lowest competitor level
With: Cbf1 competitor, 0.05 µM
Reading: higher = stronger binding
Constant ends, left off below: … GTCTTGATTCGCTTGACGCTGCTG
Construct (chain): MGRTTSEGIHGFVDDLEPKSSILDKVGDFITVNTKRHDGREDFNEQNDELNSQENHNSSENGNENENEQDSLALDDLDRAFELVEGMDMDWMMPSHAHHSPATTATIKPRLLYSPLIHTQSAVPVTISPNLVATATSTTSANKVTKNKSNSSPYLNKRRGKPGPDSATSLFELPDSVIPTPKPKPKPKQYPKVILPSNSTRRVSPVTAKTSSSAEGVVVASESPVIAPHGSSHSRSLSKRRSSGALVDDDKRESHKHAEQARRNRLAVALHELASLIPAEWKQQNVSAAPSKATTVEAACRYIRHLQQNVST
Strand | fluorescence intensity
GCGTCCATGGGAGTGCTCCTGCAACGTACTTCATCT | 4320 a.u.
CCCGGTATTAGTTTGCACGTTTTCTTTCCTTTGCTT | 12000 a.u.
TGTTGCCCGCCACTTAGTGTGACAGTCCCAGTCCCA | 2770 a.u.
TCTCTCGCGTTGCTTCTTGTGACGGCAGTTGTATAT | 4570 a.u.
ATTTGACCATTATTCCACGTGTTGAGTTCTCAGAAT | 19200 a.u.
GCGCTCTTGTTCATGTTCGTGATGGTGTCCAGCCAT | 4690 a.u.
AAGCATGGTGCCGTTCACATGTCCACCTACTTGAAG | 6930 a.u.
AGACGAGGCAAAAGACACATGGTCGGCCCGTAACCA | 9320 a.u.
TACCCAGCGCGTCCGCACGTGCTTTTTATGGAAACT | 18400 a.u.
GTCTTGTCTCATTGCATCGTGGGTGTCCCCACTTCA | 11300 a.u.
TATTGACAGCATTCGATCGTGCAATGGGAAATAACG | 6260 a.u.
ACACAGCCGTACCTACACGTGCCAGTTATCTTGATA | 17500 a.u.
GGACCATATAGAGCATAGGTGTGGCCCGCGATCCAG | 5170 a.u.
TGCAAGGGTTATGGGCATGCGCATCTATGTGGCGTT | 9180 a.u.
CGGGGTTAAGTTTGACGAGTGGGTGGCTTGCAGCAG | 4390 a.u.
AAAGCAGATGGGGATCGCGTGCTAACAAATTACTCG | 10100 a.u.
CTTTCCCGATCTTGGAAGGTGGGTGTAGCACATTTG | 4250 a.u.
ACTACTAGCCCTCCACACGTTCGAGGCCAGGTTGAT | 11600 a.u.
AAAGCGGTAATTTTTCACGTGCCGTCAAATATCTAT | 13300 a.u.
TCTTATTTAATTCGTCACAGACGGTAACGCAGCGCC | 3560 a.u.

Study 5
Target: CCNB3, cyclin fold, Cln2 fusion (human)
Technique: yeast growth competition, sequencing
Medium: yeast
Notes: weak parent motif
Reference: not given
Reading: higher = stronger binding
Starting sequence: CDKN1A docking peptide (human); SKACRRLFGPVDS; partner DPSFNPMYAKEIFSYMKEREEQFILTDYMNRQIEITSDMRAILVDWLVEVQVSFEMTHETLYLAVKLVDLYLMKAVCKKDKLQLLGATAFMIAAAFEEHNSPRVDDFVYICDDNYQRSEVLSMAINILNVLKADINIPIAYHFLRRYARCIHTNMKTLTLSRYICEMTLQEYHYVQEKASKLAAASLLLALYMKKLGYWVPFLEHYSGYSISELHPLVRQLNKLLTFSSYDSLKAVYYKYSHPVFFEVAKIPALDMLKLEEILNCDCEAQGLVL
Substitution | normalised enrichment score
SKACRRLFGPVYS [D12Y] | 0.561
SKACRRLFIPVDS [G9I] | 0.616
SKACRRMFGPVDS [L7M] | 0.297
SKACRRLTGPVDS [F8T] | -0.461
SKACRRLFGPVES [D12E] | 0.0899
SKACRRQFGPVDS [L7Q] | 0.183
SRACRRLFGPVDS [K2R] | 0.243
SKMCRRLFGPVDS [A3M] | 0.547
SKACRRLFGPVMS [D12M] | 0.566
SKACRRSFGPVDS [L7S] | -0.0527
SKACRRLFGGVDS [P10G] | 0.475
SKACRRLFGLVDS [P10L] | -0.133
SKACNRLFGPVDS [R5N] | 0.11
SKACRPLFGPVDS [R6P] | -0.178
SKACRRLFGPVNS [D12N] | 0.767
SKALRRLFGPVDS [C4L] | 0.215
SKACRRLFSPVDS [G9S] | 0.516
SKACRTLFGPVDS [R6T] | 1.03
SKACRRLFGAVDS [P10A] | 0.345
SMACRRLFGPVDS [K2M] | 0.885
SKACRRLFGPTDS [V11T] | 0.824
SKNCRRLFGPVDS [A3N] | -0.272
SKACHRLFGPVDS [R5H] | 0.15
SKACRRRFGPVDS [L7R] | 0.184

Some of these lines once more (study 3):
Strand | RBNS enrichment (R)
GGCUGGCACCAGGGGAGUGAAACUGGCUGAUGACCAGCUGAGCCACUUUGUGCCAACAGAGGAUGGACGACACCUUUCCCUGUACCCACUGCAGAGGAAGAACCCUGGGC | 0.261
CAUCCCAACUCACACGGAAGCACGGGUCUUGUCUCAGUCUCUUCGCUGCAUUUGGAAAGCAGUCUCCUCUCGGGCCAGCGCCGGGCUGAGGUGUCCAGAGGCGGCGGCAG | 0.569
UGAACAGAACUGCUAUUUCCUCUAAUGAAGAAUUCUGUUUAGCUGUGGGUGUGCCGGGUGGGGUGUGUGUGAUCAAAGGACAAAGACAGUAUUUUGACAAAAUACGAAGU | 1.17
UCCCUAGCAAAAUGCUAGGCCUGUAGUAGUCAAGGUGCUCAAUAAAUAUUUGUUUGGGUGGUUUGUGAGCCUUGCUGCCAAGUCCUGCCUUUGGGUCGACAUAGUAUGGA | 1.5
ACCACUGUCAUUUCUUCAGCUAUGGAUAUGUGGCUGAUGUUGGGGAGACGGACCUCAGUGUGUUUUAUAUUGUCUGGUGUUAAGAUGAUAAAUUACUUUGUGAUUACAAG | 0.439
